Assay results of several laboratories.
Each numbered part is a random draw from the data of one study; scales do not carry over between parts.
UniProt P06213, sequence (whole entry, looked up): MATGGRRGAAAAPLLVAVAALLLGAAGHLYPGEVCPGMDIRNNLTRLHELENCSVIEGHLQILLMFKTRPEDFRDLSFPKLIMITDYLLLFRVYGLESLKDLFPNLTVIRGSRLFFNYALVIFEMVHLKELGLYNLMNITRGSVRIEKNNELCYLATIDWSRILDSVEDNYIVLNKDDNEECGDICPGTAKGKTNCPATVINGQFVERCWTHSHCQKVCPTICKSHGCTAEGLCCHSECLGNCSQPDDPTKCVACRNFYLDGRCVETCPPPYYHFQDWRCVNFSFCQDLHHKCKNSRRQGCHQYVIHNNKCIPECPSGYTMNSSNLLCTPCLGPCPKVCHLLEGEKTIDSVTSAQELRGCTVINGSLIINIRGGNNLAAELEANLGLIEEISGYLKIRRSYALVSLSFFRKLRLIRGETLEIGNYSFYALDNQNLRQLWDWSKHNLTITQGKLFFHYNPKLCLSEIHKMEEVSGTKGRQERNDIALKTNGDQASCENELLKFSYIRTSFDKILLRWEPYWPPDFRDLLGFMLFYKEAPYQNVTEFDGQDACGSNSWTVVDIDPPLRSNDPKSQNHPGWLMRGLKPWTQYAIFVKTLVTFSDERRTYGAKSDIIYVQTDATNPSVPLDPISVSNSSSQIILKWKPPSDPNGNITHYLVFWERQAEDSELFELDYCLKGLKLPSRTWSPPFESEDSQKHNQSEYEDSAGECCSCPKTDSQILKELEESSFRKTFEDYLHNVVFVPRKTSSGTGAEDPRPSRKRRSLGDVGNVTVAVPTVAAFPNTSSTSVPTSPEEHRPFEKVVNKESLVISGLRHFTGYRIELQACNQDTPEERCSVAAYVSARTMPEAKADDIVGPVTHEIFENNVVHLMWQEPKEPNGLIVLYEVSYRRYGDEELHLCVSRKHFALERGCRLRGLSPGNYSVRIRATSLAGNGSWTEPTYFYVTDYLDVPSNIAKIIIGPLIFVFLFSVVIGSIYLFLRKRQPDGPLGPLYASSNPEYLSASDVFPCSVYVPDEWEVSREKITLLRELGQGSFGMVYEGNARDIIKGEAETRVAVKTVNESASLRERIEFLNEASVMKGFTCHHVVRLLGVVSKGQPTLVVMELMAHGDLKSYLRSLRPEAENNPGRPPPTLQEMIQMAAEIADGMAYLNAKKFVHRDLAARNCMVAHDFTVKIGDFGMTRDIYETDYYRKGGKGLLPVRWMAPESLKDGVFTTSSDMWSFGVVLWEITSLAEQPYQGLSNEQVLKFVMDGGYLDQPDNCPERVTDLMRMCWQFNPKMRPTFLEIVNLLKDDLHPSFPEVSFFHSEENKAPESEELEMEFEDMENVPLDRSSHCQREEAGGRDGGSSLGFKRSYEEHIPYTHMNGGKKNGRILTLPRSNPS
UniProt O76039, sequence (whole entry, looked up): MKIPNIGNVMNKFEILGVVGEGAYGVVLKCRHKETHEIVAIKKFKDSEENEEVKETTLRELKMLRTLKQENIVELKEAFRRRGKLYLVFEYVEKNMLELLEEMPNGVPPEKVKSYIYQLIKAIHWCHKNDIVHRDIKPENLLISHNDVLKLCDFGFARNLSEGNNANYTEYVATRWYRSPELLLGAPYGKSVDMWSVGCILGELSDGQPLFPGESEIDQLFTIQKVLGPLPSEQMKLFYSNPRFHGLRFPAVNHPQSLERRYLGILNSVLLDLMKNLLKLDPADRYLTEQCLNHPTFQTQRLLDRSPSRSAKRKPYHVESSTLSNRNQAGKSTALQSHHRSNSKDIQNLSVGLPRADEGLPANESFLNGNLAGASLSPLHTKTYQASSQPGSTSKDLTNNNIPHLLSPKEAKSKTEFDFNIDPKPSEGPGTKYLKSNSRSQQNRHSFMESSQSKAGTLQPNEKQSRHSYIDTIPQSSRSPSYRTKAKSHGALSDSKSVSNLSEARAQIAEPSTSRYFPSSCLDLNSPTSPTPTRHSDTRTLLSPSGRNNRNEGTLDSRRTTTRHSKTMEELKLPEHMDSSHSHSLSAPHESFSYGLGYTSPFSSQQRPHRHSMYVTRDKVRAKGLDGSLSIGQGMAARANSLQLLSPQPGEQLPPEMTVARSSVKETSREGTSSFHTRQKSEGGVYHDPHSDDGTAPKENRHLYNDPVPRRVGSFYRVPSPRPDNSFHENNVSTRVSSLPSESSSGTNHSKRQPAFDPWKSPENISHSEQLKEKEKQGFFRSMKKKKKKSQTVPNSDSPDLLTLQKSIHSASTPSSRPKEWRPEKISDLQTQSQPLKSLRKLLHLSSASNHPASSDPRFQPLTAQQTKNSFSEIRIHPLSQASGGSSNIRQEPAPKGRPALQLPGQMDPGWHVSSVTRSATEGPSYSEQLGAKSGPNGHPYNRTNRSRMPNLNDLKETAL
UniProt O14920, sequence (whole entry, looked up): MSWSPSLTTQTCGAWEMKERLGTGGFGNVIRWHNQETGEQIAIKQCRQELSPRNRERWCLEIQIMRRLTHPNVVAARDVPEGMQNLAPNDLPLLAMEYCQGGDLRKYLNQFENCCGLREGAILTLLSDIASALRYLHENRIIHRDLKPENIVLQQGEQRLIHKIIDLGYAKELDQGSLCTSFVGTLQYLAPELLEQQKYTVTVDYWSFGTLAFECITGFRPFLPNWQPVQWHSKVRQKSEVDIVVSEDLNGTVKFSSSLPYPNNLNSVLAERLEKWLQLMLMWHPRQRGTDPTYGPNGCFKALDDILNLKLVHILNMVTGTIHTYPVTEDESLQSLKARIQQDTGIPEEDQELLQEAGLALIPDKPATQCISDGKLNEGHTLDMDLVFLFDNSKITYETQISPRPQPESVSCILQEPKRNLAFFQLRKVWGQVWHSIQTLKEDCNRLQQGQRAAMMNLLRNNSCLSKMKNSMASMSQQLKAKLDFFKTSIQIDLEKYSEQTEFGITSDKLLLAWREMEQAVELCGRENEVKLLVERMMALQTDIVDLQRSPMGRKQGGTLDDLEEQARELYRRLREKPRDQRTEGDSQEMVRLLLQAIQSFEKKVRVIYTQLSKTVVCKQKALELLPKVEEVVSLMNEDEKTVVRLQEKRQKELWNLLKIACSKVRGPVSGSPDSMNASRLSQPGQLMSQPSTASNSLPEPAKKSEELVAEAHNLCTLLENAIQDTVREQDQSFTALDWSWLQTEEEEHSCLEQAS
UniProt O95819, sequence (whole entry, looked up): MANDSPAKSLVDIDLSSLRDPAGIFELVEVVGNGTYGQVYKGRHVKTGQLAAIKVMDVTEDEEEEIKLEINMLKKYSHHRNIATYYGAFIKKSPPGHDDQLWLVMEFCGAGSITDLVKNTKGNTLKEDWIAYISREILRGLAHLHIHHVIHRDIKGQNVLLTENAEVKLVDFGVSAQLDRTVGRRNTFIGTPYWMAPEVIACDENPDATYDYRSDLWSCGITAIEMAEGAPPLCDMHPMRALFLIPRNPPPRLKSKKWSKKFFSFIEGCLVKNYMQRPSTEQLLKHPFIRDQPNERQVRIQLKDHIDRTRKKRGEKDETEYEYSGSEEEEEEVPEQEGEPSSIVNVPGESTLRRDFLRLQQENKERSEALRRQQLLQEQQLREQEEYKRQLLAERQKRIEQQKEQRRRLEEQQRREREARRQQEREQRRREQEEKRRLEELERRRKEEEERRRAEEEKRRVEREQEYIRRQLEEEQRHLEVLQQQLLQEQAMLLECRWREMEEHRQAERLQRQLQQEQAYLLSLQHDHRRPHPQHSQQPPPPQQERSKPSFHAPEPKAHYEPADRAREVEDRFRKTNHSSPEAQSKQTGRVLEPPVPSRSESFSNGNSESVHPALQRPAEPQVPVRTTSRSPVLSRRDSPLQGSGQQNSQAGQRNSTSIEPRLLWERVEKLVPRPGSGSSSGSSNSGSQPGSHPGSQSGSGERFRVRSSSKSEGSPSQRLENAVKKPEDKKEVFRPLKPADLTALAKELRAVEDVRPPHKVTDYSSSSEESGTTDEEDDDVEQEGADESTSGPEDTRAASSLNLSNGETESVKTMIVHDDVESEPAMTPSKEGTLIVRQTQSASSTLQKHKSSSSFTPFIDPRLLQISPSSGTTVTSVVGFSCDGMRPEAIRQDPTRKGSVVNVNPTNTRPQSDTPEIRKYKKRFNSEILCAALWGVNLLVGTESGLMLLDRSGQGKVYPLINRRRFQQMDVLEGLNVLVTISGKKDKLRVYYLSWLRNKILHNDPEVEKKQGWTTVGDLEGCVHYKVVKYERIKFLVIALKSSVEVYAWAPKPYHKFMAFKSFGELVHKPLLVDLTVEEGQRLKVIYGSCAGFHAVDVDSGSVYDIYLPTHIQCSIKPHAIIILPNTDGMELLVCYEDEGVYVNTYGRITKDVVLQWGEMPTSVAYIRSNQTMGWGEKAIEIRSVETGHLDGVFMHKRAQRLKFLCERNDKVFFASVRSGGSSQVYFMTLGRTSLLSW
UniProt Q9H3Y6, sequence (whole entry, looked up): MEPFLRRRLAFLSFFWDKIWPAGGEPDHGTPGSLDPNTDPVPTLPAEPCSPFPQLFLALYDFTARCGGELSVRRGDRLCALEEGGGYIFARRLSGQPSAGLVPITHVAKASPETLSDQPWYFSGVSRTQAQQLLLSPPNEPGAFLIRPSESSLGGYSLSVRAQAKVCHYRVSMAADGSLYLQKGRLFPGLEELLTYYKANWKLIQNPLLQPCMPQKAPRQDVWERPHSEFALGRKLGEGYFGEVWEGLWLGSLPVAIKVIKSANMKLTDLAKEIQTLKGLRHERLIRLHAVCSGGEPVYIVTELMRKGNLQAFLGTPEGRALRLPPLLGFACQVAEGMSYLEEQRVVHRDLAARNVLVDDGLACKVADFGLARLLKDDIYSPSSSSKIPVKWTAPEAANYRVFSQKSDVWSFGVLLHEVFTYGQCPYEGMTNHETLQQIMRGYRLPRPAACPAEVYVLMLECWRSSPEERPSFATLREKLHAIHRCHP

Sample 1 — effect on: cell-free assay; method: competition with immobilised ligand; concentration: 0.1 µM; quantity: remaining binding
Structure (SMILES): CS(=O)(=O)N1CCCC(NC(=O)[C@H](CCC2CCCCC2)NC(=O)c2ccc(CNC(=O)c3cnc4ccccn34)cc2)C1 (stereo partly drawn)
Insulin receptor (INSR, Homo sapiens, UniProt P06213): 100%
CDK15 (Homo sapiens, UniProt Q96Q40): 95%
PKN1 (Homo sapiens, UniProt Q16512): 72%
IKBKB (Homo sapiens, UniProt O14920): 100%
eIF-2-alpha kinase GCN2, C-terminal kinase domain (EIF2AK4, Homo sapiens, UniProt Q9P2K8, S808G): 100%
EGFR (Homo sapiens, UniProt P00533, L858R): 83%
ITK (Homo sapiens, UniProt Q08881): 90%
HASPIN (Homo sapiens, UniProt Q8TF76): 74%
CDKL5 (Homo sapiens, UniProt O76039): 100%
CSNK1G3 (Homo sapiens, UniProt Q9Y6M4): 100%
FGFR3 (Homo sapiens, UniProt P22607, G697C): 86%
MET (Homo sapiens, UniProt P08581): 62%
SLK (Homo sapiens, UniProt Q9H2G2): 99%
CAMK4 (Homo sapiens, UniProt Q16566): 94%

Sample 2 — method: protein-binding microarray; form: hairpin DNA; matrix: in vitro; concentration: not given; baseline: not given; direction: higher = stronger binding; quantity: median fluorescence
Target: Microphthalmia-associated transcription factor, full length (MITF, Homo sapiens, UniProt O75030-10, residues 1-413)
Setting: whole hairpin DNA, median over replicate spots
CACTTAGCACGTGATTTTGGTCCTCCAAAATCACGTGCTAAGTGACACTC (5mC at 34): 15300 a.u.
CACTTACCACGTGATTTTGGTCCTCCAAAATCACGTGGTAAGTGACACTC: 25600 a.u.
CACTTAGCAAGTGATTTTGGTCCTCCAAAATCACTTGCTAAGTGACACTC: 4610 a.u.
CACTTAGCACGTGATTTTGGTCCTCCAAAATCACGTGCTAAGTGACACTC (5mC at 10): 17500 a.u.
GAGGCCTAGCACGTGCGGCCTCCTGGCCGCACGTGCTAGGCCTCACACTC (5mC at 28): 21700 a.u.
CACTTAGCACGTGAATTTGGTCCTCCAAATTCACGTGCTAAGTGACACTC: 20800 a.u.
GAGGCCTAGCCGGTGCTGCCTCCTGGCAGCACCGGCTAGGCCTCACACTC (5mC at 11 33): 5510 a.u.
GAGGCCTAGTACGTGCTGCCTCCTGGCAGCACGTACTAGGCCTCACACTC: 6250 a.u.

Sample 3 — method: protein binding microarray; form: double-stranded DNA, one strand shown; matrix: in vitro; concentration: not given; baseline: not given; direction: higher = stronger binding; quantity: E-score
Target: Histone acetyltransferase KAT6A, winged helix 1, GST fusion (KAT6A, Homo sapiens, UniProt Q92794, residues 1-85)
Setting: 8-mer, flanks averaged, mean of 2 arrays, mostly near background
Construct (chain): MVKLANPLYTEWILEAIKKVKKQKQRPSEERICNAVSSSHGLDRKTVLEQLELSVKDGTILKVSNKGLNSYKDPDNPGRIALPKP
ATAGCGAA: -0.171
AGAAGGAA: 0.117
CAACTCCC: -0.000395
GACCTAAA: 0.0117
CATGACCA: -0.224
GCGCGCGA: 0.45
AAAGACGA: -0.0995
ATGTACTC: 0.0379

Sample 4 — effect on: enzyme activity; mode: inhibitor; concentration: 0.5 µM; baseline: control; quantity: remaining activity
SMILES: COc1ccc2c(c1)c(C1=C(c3c[nH]c4ccccc34)C(=O)NC1=O)cn2CCCN(C)C
PDPK1 (Homo sapiens, UniProt O15530): 76.7%
PHKG1 (Homo sapiens, UniProt Q16816): 66.4%
STK16 (Homo sapiens, UniProt O75716): 93.1%
MAP4K4 (Homo sapiens, UniProt O95819): 37.8%
STK17A (Homo sapiens, UniProt Q9UEE5): 84%
BLK (Homo sapiens, UniProt P51451): 78.8%
RPS6KA5 (Homo sapiens, UniProt O75582): 61.3%
CAMK2B (Homo sapiens, UniProt Q13554): 89.9%
EPHB4 (Homo sapiens, UniProt P54760): 94.2%
Cyclin-dependent kinase 6, with cyclin D3 (CDK6, Homo sapiens, UniProt Q00534): 85%
SRMS (Homo sapiens, UniProt Q9H3Y6): 95.9%
EPHB1 (Homo sapiens, UniProt P54762): 91.7%

Some of these lines once more (sample 4):
PDPK1 (Homo sapiens, UniProt O15530): 76.7%
PHKG1 (Homo sapiens, UniProt Q16816): 66.4%
STK16 (Homo sapiens, UniProt O75716): 93.1%
MAP4K4 (Homo sapiens, UniProt O95819): 37.8%
STK17A (Homo sapiens, UniProt Q9UEE5): 84%
BLK (Homo sapiens, UniProt P51451): 78.8%
